Results gathered from unrelated publications.
Every numbered part comes from another study and shows a few of its results, in no order.

Sample 1
Target: PABPC1L2, full length, GST fusion (mouse, UniProt A0ABA7IW68)
Technique: RNAcompete
Molecule type: RNA
Sample: in vitro
Tested at: 20 nM
Notes: 7-mer, probes averaged, single round
Baseline: mean of 7-mers
Reading: higher = stronger binding
Construct (chain): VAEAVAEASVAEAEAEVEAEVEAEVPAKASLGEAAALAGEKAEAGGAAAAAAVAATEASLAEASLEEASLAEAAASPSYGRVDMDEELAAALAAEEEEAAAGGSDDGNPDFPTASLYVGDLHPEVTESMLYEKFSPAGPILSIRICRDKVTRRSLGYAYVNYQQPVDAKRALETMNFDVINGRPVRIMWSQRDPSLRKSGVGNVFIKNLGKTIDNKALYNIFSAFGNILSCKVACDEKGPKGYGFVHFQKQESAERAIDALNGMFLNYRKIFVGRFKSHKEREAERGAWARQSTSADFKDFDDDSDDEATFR
Oligonucleotide | 7-mer Z-score
AGAUCUC | -0.298
UAAUCCC | -0.345
CGCCGAC | -0.282
AGCCCAG | -0.122
GGCGAAU | 0.0605
CUAGGAG | 0.0913
GCCGCUC | -0.409
GGUGUAA | 0.291
UCGCGAG | -0.2
CGAAUGG | -0.104
UGAUUUG | -0.24
CAGGAAU | 0.0261
UAGGUGU | -0.266
AUUGCUG | -0.021
GUGAGCG | -0.153
GGACAAU | 0.167
UACGAUU | -0.242
UCGGGUC | -0.175
GUUGAUG | -0.155
CGAUUGA | 0.00436
ACAAUGG | 0.329

Sample 2
Target: Sal-like protein 4, full length isoform A (SALL4, Homo sapiens, UniProt Q9UJQ4, residues 1-1053)
UniProt Q9UJQ4, sequence (whole entry, looked up): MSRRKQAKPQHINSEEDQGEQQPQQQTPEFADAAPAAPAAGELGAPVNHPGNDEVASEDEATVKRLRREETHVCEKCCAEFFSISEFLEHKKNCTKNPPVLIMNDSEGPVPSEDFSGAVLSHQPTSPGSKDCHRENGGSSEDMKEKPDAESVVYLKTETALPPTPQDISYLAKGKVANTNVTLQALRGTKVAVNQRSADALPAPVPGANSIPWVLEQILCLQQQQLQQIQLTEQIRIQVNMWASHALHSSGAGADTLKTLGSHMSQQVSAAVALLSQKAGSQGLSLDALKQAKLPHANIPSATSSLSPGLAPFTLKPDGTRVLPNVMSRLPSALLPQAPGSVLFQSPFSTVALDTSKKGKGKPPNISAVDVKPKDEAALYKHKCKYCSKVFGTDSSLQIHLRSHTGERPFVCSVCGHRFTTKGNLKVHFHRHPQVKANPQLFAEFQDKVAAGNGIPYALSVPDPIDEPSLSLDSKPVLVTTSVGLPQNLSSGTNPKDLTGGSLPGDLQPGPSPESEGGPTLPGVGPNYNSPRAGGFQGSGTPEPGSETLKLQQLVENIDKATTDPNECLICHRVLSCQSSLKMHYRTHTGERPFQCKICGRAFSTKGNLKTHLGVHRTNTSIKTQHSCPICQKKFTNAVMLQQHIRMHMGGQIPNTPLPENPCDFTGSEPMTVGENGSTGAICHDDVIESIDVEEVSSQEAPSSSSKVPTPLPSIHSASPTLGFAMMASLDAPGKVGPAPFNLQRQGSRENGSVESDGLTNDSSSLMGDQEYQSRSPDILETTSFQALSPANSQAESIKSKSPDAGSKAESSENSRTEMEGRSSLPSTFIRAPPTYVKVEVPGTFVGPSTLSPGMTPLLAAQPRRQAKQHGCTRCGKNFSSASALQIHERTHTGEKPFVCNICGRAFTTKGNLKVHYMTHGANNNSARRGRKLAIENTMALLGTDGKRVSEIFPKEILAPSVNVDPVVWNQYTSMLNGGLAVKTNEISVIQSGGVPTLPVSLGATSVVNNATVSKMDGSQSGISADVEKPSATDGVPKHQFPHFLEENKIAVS
Technique: universal PBM
Molecule type: double-stranded DNA, one strand shown
Sample: in vitro
Tested at: 600 nM
Notes: 8-mer, flanks averaged, mean of replicates
Reading: higher = stronger binding
Oligonucleotide | E-score
GCGCACCA | -0.154
CATACCTA | 0.0401
GAAGAGTC | -0.116
GAGTGGCC | -0.279
AGTAGCTA | 0.126
ATACCTCC | -0.0258
AGAGGCTC | -0.259
CTCCCCTA | -0.0956
GCTCGGAC | -0.302
GAGGAGAA | -0.0162
GAATGGCC | -0.197
AATTGGTC | 0.17
AAAACACA | 0.165
ACTCGTAG | 0.0197
CCTTCCAC | -0.0892
GCAAGCGA | -0.0522
GCATTAAC | 0.113
GAGTTACA | 0.113
ACCACTCC | -0.213
AAATGCTA | 0.208
AAACCGTC | -0.0876
CCTGGTCA | -0.218
TGGCATAA | 0.299
AATCAGTC | 0.00601
AGTTTCTG | -0.0182

Sample 3
Target: RNA binding protein fox-1 homolog 2, RRM domain, GST-SBP tag (RBFOX2, Homo sapiens, UniProt O43251-10, residues 100-194)
Technique: RNA Bind-n-Seq
Molecule type: RNA
Sample: in vitro
Tested at: 365 nM
Notes: natural RNA segment, single round, ends assumed
Baseline: no-protein control
Reading: higher = stronger binding
Target sequence (chain): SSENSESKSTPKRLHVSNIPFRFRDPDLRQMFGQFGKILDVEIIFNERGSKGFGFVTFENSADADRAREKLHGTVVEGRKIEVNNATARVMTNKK
Oligonucleotide | RBNS enrichment (R)
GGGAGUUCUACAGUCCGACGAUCUGCUGGUUGUAUUAACAGAGCACAUUUGUCGGGUGAGUCGUGUAUACAAACUUUUUUUUUUUAUCCUGUUUGUUUUAUCUGGGGGUUCGUUCAUUAAACUGACAGAUAUUUGGAAUUCUCGGGUGCCAA | 0.665
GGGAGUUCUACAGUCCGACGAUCUGUGCAUUAAGAAAUUUAAGUUUGGGGCUGGAGAAAUGGCCCAUCGAUUAAGAAAGAGCACUGGUGGCUGCUUUUCCAGAGAUCCUGAGUUCAAUUCCCAGCAACCACAUUGGAAUUCUCGGGUGCCAA | 1.21
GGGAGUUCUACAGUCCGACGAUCAGACUAGUCAAGAUGUGAAUGCUAAUUGGAGAGAAAUAUAAUUUUAGGAAGAUGCACAUUGAUGUGGGGUUUUGAUGUGUCUGAUUUUGACUACUCAAGCUCUGUUUACAUGGAAUUCUCGGGUGCCAA | 0.888
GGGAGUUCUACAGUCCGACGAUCUACCCUCCCCUUGUACUAAGAGCACAAGACACAGGACUCACAGAUUGCUUGUUCUCCCCUAUAAAGUAGUAGGCUCCACACUUGUUUUUGUGGUAAACAGGAGCAGUCACUGGAAUUCUCGGGUGCCAA | 0.298
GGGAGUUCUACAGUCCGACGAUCUCCAGGGUGAUGAGUGUGGACGGGGGCACCAGUCAGUUCUCCCUUGAAGUAAACCUCAGUGCCUGAGACUUUUCUACCAAGCCACACAGCUGCAGCAACUGCAGAUACUGUGGAAUUCUCGGGUGCCAA | 0.453
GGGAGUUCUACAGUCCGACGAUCGUUGGUGGCCCUCUGUGCCCUAAGCAUAUGCACAUGGGGCACAUACACAGCUACAGAGUGAGAGUUGGUUUGGAUCCUCUUCAUUUCAUUUGUUUGCCUUUCUGUUAUUUUGGAAUUCUCGGGUGCCAA | 1.79
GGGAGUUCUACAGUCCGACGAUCAAAAUAACUACCCUCAGCAAACACUAGCUGUUCUGCUCAUAUAUGAAUUUUUAAUGCAGCAAUGUUGACUUUGUUUCAUACUGCCAAUAAACUCUUAAUACUAAAUACUGUGGAAUUCUCGGGUGCCAA | 0.409
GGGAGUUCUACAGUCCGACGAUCGACAUGGGGAGGACAAAGAGAGCUCAAGAGGAAUGCUUUGUGAGAAGUGGAUUCUCUCCGUGUCCCUGCCCCCCACCCAAACUUGAACUAUACCUAUUACAUUUCCAGGCUGGAAUUCUCGGGUGCCAA | 0.851
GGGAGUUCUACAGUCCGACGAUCUGUUGGGUGCAAAGUUCCCUACUUCCUGUGACUUCAGCUCUGUUUUACAAUAAAAUCUUGAAAAUGCCUAUAUUGUUGACUAUGUCCUUGGCCUUGACAGGCUUUGGGUAUGGAAUUCUCGGGUGCCAA | 0.42
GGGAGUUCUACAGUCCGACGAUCCGGUGCCCCUGCACUACCUGCCCCACGAUCCGCUGCACCAGGAGCUGUCCUUUGGUGUGCCAUAUUCUCACAUGAUGCCACGGAGACUGAGCACCCAGAGAUACCGCCUGUGGAAUUCUCGGGUGCCAA | 0.701
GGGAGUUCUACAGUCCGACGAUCAAAGCUUGUAAAUAUGGGGAUAGUCUGGGUCAGACCCAUCUCUCCCUUACCCAUCUUGCUUCCAAGACCAUUUGUAGUGAGCGAGUGGAUGCUGUGCUACGUGUGAAAUCUGGAAUUCUCGGGUGCCAA | 0.472
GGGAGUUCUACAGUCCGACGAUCGCCUCUGCCUCCCGAGUGCUGGGAUUAAAGGCGUGCGCCACCACGCCCGGCUCUGUUCAUCCUUUUAAAGGUAGAUCUUUUAUAACAUCCUUUGCCACCUUGAGAUGAUUUGGAAUUCUCGGGUGCCAA | 0.511

Sample 4
Target: Interferon regulatory factor 7, full length, phosphomimetic (IRF7, Homo sapiens, UniProt Q92985, residues 1-503, S101K/S471D/S472D/S475D/S476D/S477D/S483D/S484D/S487D)
Technique: protein-binding microarray
Molecule type: double-stranded DNA, one strand shown
Sample: in vitro
Tested at: 250 nM
Notes: 60-bp whole probe
Added: salmon DNA 0.4 mg/ml
Baseline: random background probes
Reading: higher = stronger binding
All sequences stand within: GCCTAGCAC … GTCTTGATTCGCTTGACGCTGCTG
Construct (chain): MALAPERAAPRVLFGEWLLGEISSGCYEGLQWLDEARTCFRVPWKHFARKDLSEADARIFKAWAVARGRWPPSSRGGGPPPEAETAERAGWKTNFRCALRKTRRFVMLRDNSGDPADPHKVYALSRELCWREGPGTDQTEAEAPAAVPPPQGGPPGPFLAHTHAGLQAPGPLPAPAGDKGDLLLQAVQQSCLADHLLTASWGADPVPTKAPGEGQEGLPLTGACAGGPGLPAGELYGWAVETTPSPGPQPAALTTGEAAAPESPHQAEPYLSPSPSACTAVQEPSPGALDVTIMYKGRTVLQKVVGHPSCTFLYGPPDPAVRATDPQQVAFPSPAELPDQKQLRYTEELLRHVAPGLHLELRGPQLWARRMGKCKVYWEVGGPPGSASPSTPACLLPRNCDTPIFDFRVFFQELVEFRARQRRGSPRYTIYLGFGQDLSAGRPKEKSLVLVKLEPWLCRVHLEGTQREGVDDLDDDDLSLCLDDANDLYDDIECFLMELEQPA
Oligonucleotide | log fluorescence [z-score]
TTAGGTTTCATTTCCCTTTAGTGCTAG | 6.24
TCACCTTTATGTACTCTCACTGTGCTA | 0.455
TCAAAAATGATTTTTTTACTGTGCTAG | -0.0224
TTAGGACCGGACTTTCGGTTAGTGCTA | 1.58
GACGGTATCATTTTCCTGACGTGCTAG | 0.787
GAGGATTTCAGACTGGAGACGTGCTAG | -0.59
TTAGGACTGGGGTTTCGCTTAGTGCTA | 3.4
TCAGGTCTGTTTCTGATACTGTGCTAG | 0.834
GACGGTTTCGGGACTGGGGAGGTGCTA | 4.17
TGTGGCTTAGCTGTCACCTCGTGCTAG | -0.663
GACCGTTTCGGTTTCGGGACGTGCTAG | 11
TTAGGTAACGACACTGGGTTAGTGCTA | -0.354
TTAGAACTGAGCCTGGATTAGTGCTAG | -0.489
TTAGGACTGGGGTATCGATTAGTGCTA | 0.3
TCAAGACTCATAATGGCTAGGTGCTAG | 0.375
ATATATATATTATATATTTATGTGCTA | 0.567
GACGGACTGCTTCTCGTGACGTGCTAG | -0.0655
TTAGGACTGCTTATCCTTTTGTGCTAG | 0.202
GCCGGTTTCCTTTCCCTGACGTGCTAG | 5.44
GACGGACTGCGTATCGGGACGTGCTAG | -0.78
TCACATACTGATTTCCAACTGTGCTAG | 0.519

A few entries again (sample 1):
Oligonucleotide | 7-mer Z-score
CUAGGAG | 0.0913
GCCGCUC | -0.409
GGUGUAA | 0.291
UCGCGAG | -0.2
CGAAUGG | -0.104
UGAUUUG | -0.24
CAGGAAU | 0.0261
